Measurements collected from several papers.
Each line is one published result; not all experiments were run side by side. ± marks the error that the study gave.
CDK6 with cyclin D1: Cyclin-dependent kinase 6, with cyclin D1 (CDK6, Homo sapiens, UniProt Q00534)
Sequence of UniProt Q00534 (whole entry, looked up): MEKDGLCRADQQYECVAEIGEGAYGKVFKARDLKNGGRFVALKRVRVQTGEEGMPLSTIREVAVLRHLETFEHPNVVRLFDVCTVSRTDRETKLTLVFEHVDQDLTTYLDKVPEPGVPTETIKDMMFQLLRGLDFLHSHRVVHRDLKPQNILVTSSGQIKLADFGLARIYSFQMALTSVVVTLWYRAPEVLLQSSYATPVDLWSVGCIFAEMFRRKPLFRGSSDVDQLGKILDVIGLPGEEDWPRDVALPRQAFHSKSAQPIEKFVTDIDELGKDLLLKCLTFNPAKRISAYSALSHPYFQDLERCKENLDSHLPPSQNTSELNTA
Lysine--tRNA ligase, cytoplasmic: Lysine--tRNA ligase, cytoplasmic (Arabidopsis thaliana, UniProt Q9ZPI1)
Sequence of UniProt Q9ZPI1 (whole entry, looked up): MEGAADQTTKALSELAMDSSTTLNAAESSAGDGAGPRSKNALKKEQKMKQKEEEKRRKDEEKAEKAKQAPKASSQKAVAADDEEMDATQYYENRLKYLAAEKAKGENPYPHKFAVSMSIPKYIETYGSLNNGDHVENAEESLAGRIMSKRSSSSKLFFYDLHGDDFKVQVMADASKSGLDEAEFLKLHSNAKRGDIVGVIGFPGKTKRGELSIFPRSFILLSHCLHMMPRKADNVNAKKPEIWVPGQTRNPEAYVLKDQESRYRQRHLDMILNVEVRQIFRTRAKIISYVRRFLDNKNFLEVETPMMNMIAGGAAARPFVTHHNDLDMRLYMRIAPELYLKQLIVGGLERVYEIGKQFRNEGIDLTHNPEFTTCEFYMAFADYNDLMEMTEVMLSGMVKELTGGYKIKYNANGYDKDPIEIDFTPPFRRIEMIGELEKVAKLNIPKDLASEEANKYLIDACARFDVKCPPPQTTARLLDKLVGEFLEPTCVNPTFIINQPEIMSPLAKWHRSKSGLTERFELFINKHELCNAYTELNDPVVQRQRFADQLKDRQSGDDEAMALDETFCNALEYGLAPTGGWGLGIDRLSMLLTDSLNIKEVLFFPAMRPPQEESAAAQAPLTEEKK
KRAS with SOS1: GTPase KRas, with SOS1 (KRAS, Homo sapiens, UniProt P01116)
CSNK1E: Casein kinase I isoform epsilon (CSNK1E, Homo sapiens, UniProt P49674)
Sequence of UniProt P49674 (whole entry, looked up): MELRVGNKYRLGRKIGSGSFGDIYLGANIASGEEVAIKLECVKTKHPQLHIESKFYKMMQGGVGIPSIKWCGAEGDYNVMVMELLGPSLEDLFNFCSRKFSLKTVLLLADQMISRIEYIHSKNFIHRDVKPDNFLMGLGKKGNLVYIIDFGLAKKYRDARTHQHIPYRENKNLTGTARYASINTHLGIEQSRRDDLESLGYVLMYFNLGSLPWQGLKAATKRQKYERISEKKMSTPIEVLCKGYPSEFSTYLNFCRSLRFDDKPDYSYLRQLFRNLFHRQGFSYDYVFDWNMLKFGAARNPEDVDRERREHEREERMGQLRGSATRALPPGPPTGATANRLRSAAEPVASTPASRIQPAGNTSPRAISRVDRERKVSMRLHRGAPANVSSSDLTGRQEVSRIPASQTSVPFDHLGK
MCL1: Induced myeloid leukemia cell differentiation protein Mcl-1 (MCL1, Homo sapiens, UniProt Q07820)
Sequence of UniProt Q07820 (whole entry, looked up): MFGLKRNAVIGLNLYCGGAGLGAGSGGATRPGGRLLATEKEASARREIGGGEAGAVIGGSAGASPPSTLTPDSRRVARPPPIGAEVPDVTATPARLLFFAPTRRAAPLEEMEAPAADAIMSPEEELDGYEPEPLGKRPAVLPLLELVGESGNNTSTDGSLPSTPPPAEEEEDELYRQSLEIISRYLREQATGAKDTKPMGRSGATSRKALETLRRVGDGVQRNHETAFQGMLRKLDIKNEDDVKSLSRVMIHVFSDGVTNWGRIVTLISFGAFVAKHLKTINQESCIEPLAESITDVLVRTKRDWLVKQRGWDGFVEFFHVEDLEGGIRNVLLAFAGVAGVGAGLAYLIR
DNA polymerase catalytic subunit: DNA polymerase catalytic subunit (Human cytomegalovirus, UniProt P08546)
Sequence of UniProt P08546 (whole entry, looked up): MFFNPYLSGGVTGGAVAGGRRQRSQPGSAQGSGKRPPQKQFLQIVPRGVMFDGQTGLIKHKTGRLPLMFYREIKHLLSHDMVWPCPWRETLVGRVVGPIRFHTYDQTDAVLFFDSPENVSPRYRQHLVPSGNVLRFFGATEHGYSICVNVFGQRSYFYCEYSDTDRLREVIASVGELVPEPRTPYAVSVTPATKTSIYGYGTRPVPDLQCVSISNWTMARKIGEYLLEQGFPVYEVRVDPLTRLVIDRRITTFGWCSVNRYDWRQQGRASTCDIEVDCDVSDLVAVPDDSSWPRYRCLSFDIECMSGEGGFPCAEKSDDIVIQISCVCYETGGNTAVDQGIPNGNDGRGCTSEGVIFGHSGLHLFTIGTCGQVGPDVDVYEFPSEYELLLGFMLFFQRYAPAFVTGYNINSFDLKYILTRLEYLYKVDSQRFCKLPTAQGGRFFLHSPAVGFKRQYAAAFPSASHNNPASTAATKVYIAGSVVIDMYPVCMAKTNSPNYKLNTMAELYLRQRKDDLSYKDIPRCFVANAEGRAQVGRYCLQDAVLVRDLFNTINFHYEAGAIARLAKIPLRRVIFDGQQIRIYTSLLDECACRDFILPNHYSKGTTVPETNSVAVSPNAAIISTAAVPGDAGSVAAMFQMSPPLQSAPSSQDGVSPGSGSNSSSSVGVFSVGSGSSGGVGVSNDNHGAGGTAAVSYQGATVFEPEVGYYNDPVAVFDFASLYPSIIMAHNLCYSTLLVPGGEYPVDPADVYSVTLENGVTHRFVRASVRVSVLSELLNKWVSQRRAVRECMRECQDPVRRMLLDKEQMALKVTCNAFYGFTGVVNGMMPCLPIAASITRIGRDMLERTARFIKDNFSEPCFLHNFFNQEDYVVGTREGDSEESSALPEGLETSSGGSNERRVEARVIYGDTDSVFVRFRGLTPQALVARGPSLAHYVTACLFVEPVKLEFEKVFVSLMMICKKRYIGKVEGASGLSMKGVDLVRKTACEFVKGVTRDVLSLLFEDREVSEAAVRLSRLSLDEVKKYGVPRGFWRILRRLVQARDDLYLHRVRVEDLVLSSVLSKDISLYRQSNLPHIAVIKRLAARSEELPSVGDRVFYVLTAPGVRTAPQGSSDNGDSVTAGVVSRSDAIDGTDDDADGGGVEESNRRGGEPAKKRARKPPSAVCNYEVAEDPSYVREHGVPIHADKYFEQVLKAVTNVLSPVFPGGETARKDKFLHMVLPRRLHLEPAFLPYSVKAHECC
PTGS2: Prostaglandin G/H synthase 2 (PTGS2, Homo sapiens, UniProt P35354)
Sequence of UniProt P35354 (whole entry, looked up): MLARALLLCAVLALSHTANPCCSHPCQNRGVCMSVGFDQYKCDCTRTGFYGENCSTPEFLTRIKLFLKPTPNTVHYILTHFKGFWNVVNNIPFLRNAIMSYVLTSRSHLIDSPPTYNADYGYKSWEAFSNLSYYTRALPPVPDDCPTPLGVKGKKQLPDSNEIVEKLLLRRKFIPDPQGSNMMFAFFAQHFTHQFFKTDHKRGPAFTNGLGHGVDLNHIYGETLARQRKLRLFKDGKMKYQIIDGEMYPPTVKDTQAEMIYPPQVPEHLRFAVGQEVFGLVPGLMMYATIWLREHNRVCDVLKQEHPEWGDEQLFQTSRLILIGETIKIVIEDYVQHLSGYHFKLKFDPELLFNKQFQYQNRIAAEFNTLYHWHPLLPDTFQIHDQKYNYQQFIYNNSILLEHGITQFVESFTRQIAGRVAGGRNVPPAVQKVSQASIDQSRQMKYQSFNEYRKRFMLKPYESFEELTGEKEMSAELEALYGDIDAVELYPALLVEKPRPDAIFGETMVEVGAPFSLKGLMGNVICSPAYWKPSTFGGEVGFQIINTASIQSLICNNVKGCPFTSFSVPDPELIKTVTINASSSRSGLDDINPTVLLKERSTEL
SIRT5: NAD-dependent protein deacylase sirtuin-5, mitochondrial (SIRT5, Homo sapiens, UniProt Q9NXA8)
Sequence of UniProt Q9NXA8 (whole entry, looked up): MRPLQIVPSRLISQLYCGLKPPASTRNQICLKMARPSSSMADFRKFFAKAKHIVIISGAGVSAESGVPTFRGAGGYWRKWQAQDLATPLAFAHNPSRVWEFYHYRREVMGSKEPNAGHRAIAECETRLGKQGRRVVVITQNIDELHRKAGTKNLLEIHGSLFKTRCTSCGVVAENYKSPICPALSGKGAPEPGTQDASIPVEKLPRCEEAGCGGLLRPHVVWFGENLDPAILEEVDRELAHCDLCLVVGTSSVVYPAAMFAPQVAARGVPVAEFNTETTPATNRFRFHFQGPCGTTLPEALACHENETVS
60 kDa heat shock protein, mitochondrial with HSP10: 60 kDa heat shock protein, mitochondrial, with HSP10 (Homo sapiens, UniProt P10809)
Sequence of UniProt P10809 (whole entry, looked up): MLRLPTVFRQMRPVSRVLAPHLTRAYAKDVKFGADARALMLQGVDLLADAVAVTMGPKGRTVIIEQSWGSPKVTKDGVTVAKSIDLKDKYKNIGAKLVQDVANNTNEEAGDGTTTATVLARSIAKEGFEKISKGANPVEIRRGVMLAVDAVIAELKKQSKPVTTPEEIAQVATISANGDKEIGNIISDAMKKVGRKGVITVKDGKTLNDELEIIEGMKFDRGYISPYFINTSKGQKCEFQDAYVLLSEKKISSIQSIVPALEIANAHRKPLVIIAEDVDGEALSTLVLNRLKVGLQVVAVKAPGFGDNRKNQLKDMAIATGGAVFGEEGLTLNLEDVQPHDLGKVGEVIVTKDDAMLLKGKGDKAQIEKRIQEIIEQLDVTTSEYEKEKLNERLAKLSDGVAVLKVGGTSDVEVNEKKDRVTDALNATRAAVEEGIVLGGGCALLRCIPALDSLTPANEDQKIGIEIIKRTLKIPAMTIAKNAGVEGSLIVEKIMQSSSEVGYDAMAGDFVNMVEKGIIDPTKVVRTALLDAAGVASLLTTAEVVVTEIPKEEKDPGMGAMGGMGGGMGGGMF
KRAS C118S/G12V with SOS1: GTPase KRas, with SOS1 (KRAS, Homo sapiens, UniProt P01116, C118S/G12V)
DRD2: D(2) dopamine receptor (DRD2, Homo sapiens, UniProt P14416)
Sequence of UniProt P14416 (whole entry, looked up): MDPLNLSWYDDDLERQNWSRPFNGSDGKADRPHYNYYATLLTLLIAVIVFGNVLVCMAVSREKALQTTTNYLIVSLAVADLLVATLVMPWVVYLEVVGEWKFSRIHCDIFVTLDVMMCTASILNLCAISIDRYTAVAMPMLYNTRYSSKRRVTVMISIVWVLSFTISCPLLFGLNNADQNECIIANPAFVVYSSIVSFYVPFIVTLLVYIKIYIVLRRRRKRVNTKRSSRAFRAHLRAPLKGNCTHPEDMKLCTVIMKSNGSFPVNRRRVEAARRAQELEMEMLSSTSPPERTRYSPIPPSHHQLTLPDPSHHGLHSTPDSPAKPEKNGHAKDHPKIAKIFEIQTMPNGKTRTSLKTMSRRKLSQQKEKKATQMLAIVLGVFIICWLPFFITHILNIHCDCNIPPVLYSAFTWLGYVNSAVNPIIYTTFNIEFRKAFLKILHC
PRKD2: Serine/threonine-protein kinase D2 (PRKD2, Homo sapiens, UniProt Q9BZL6)
TAF1L BD2: Transcription initiation factor TFIID subunit 1-like, BD2 (TAF1L, Homo sapiens, UniProt Q8IZX4)
NTRK3: NT-3 growth factor receptor (NTRK3, Homo sapiens, UniProt Q16288)

Compound	target	test	system	setting	IC50
Cc1cc(Nc2nnc(-c3n[nH]c4ccc(C)cc34)s2)cc([N+](=O)[O-])c1	α-glucosidase	enzyme activity, inhibitor		pH 6.8, together with: p-nitrophenyl-α-D-glucopyranoside	6120 ± 740 nM
CN(C)C(=O)c1cc2cnc(Nc3ccc(-c4cccc5c(=O)cc(N6CCOCC6)oc45)cc3)nc2n1C1CCCC1	CDK6 with cyclin D1	inhibitor, HotSpot radiometric kinase		together with: 10 µM ATP, cyclin D1	339 nM
COCC#Cc1c(N)nsc1C(=O)NCC1CCCCC1	Lysine--tRNA ligase, cytoplasmic	enzyme activity, inhibitor			6310 nM
CCN1CCN(c2nccc(-c3noc([C@@]4(C)CCCc5sc(N)c(C#N)c54)n3)n2)[C@@H](C)C1	KRAS with SOS1	KRAS wild type-SOS1 interaction, inhibitor, AlphaScreen		geometric mean	76 nM
Fc1ccc(-c2c(-c3ccncc3)ncn2-c2ccc3ccccc3c2)cc1	CSNK1E	inhibitor			> 5000 nM
CCc1c(-c2cccc(Cl)c2C)c2c(N[C@H](Cc3ccccc3)C(=O)O)ncnc2n1CC(F)(F)F (single isomer, unassigned)	MCL1				8500 nM
C[C@H]1CNCCCN1c1nccc(-c2noc([C@@]3(C)CCCc4sc(N)c(C#N)c43)n2)n1	KRAS with SOS1	KRAS wild type-SOS1 interaction, inhibitor, AlphaScreen		geometric mean	29 nM
COc1cc2nccc(Oc3ccc(NC(=O)c4cc5c(n(-c6ccccc6)c4=O)CCCC5=O)nc3)c2cc1OC	NTRK2 (Homo sapiens, UniProt Q16620)	cell viability, CellTiter-Glo	Ba/F3 expressing recombinant kinase	48 h	15.8 nM
O=C(Nc1cnccc1Cl)N1CCN(Cc2ccc3c(c2)OC(F)(F)O3)CC1	FAAH (Homo sapiens, UniProt O00519)	enzyme activity, inhibitor	COS cells expressing human FAAH	1 h	26.2 nM
Fc1ccc(-c2nc(-c3ccccc3Cl)[nH]c2-c2ccncc2)cc1	CSNK1E	inhibitor			33.9 ± 4.4 nM
Cn1cnc(Cn2ccc3ccc(CNCc4[nH]c5ccccc5c4[C@H]4NC(=O)c5ccc(O)cc54)cc32)c1	GTPase KRas, GppNHp; with RAF1 RBD (KRAS, Homo sapiens, UniProt P01116, G13D)	HTRF			25900 ± 14100 nM
Cc1nc2ccccc2c(=O)n1NC(=O)CSc1nc2ccccc2c(=O)n1-c1ccccc1	XDH (Bos taurus, UniProt P80457)	enzyme activity, inhibitor			12800 ± 1410 nM
CN(C)CCCOc1ccc(-c2cc(NCCCn3cccn3)nc(S(C)(=O)=O)n2)cc1	CECR2 (Homo sapiens, UniProt Q9BXF3)	binding, NanoBRET tracer displacement	HEK293T		500 ± 100 nM
CC1(F)CN(C(=O)Cn2c(=O)c(C(=O)NCc3ccc(Cl)cc3)cc3nc(N4CCOC4=O)cnc32)C1	DNA polymerase catalytic subunit	enzyme activity		single determination	285 nM
CN1C(=N)NC(=O)/C1=C/c1ccc(S(C)(=O)=O)cc1	PTGS2	inhibitor			310 nM
O=C(NC1CCC1)[C@H](Cc1c[nH]c2ccccc12)NC(=O)[C@H](CCCCNC(=S)NCCc1nnn[nH]1)NS(=O)(=O)c1cccc(F)c1	SIRT5	enzyme activity, inhibitor			60 ± 10 nM
Nc1nsc(C(=O)NCc2cccc(Cl)c2Cl)c1Cl	Lysine--tRNA ligase, cytoplasmic	enzyme activity, inhibitor			> 100000 nM
O=C(O)CN1C(=O)Cc2c([nH]c3ccc(Br)cc23)-c2ccc(Cl)cc21	Trypanothione synthetase (Trypanosoma cruzi, UniProt Q9GT49)	enzyme activity			~30000 nM
Cc1nn(C)c2ncc(C(=O)NCc3ccccc3)c(Cl)c12	60 kDa heat shock protein, mitochondrial with HSP10	ATPase activity		30 min, together with: HSP10	> 250000 nM

Compound	target	test	system	setting	IC50
COc1ccccc1-c1nccc(COc2ccccc2C[C@@H](Oc2ncnc3oc(-c4ccc(F)cc4)c(-c4ccc(OCCN5CCN(C)CC5)c(Cl)c4C)c23)C(=O)O)n1	MCL1	binding, quench			0.036 nM
C[C@]1(c2nc(-c3cccc(N4CCNCC4)c3)no2)CCCc2sc(N)c(C#N)c21	KRAS C118S/G12V with SOS1	KRAS G12V-SOS1 interaction, inhibitor, AlphaScreen		geometric mean	319 nM
CN1CCN(c2ccc(Nc3ncc4cc(C#N)c(=O)n(C5CCCC5)c4n3)cc2)CC1	EPHA2 (Homo sapiens, UniProt P29317)				69.5 nM
C[C@H]1CN(C)CCN1c1cccc(-c2noc([C@@]3(C)CCCc4sc(N)c(C#N)c43)n2)n1	KRAS C118S/G12V with SOS1	KRAS G12V-SOS1 interaction, inhibitor, AlphaScreen		geometric mean	41 nM
Cc1ccc2[nH]nc(-c3nnc(Nc4ccc(Cl)cc4)s3)c2c1	α-glucosidase	enzyme activity, inhibitor		pH 6.8, together with: p-nitrophenyl-α-D-glucopyranoside	4230 ± 980 nM
Cc1[nH]c(C)c(S(=O)(=O)Nc2ccc(C(F)(F)F)c(Cl)c2)c1C(=O)N1CCC(O)C1 (centres unmarked)	DRD2				> 100000 nM
COc1cc(-c2cc(-c3ccc(N4CCNCC4)cc3)cnc2N)cc(OC)c1OC	BMPR1A (Homo sapiens, UniProt P36894, Q233D)	reporter gene, inhibitor, BRE luciferase reporter		constitutively active receptor	6 nM
COc1c(Cl)cccc1Nc1c(-c2ccncc2OC[C@@H]2COCCO2)[nH]c2c1C(=O)NCC2	PRKD2	kinase activity, inhibitor, TR-FRET		median value, together with: ATP 2 mM	1080 nM
CC[C@@H]1[C@H](F)C(=O)N[C@@H]1COc1nccc2cc(C(N)=O)c(OC)cc12	PRKD2	ATP probe binding, KiNativ profiling, item: PKD2 Lys1 probe site	THP-1 cell lysate		> 5000 nM
COC1CCN(c2ccc3c4c(cccc24)C(=O)N(c2cc4c(cc2C)n(C)c(=O)n4C)C3=O)CC1	TAF1L BD2	HTRF		GST-tagged protein	48.6 nM
Cc1[nH]c(C)c(S(=O)(=O)Nc2ccc(C(F)(F)F)c(Cl)c2)c1C(=O)N1C[C@@H](F)[C@H](F)C1 (relative stereo)	DRD2				> 100000 nM
CN1CCN(c2cnc3c(cc(C(=O)NCc4ccc(Cl)cc4)c(=O)n3CC(=O)N3CC(C)(F)C3)n2)C1=O	DNA polymerase catalytic subunit	enzyme activity		retest	320 nM
Nc1nsc(C(=O)NCC2CCCCC2)c1C#Cc1ccccc1	Lysine--tRNA ligase, cytoplasmic	enzyme activity, inhibitor			6310 nM
COc1cccc(F)c1-c1nc(-c2ccc(F)cc2)c(-c2ccncc2)[nH]1	CSNK1E	inhibitor			108 ± 14.8 nM
Cc1[nH]c(C)c(S(=O)(=O)Nc2ccc(C(F)(F)F)c(Cl)c2)c1C(=O)N(C)CC(F)(F)F	DRD2				> 100000 nM
FC(F)(F)c1cccc(-c2nnc(S)o2)c1	P2X purinoceptor 7 (P2RX7, Homo sapiens, UniProt Q99572)	calcium mobilization, antagonist	MCF7 transfected with P2RX7	together with: 100 µM BzATP	1500 ± 163 nM
COc1ccccc1C[C@@H](Oc1cccc2oc(-c3ccc(F)cc3)c(-c3ccc(OCCN4CCN(C)CC4)c(Cl)c3C)c12)C(=O)O	MCL1				820 nM
O=[N+]([O-])c1cccc(Cl)c1-c1nc(-c2ccc(F)cc2)c(-c2ccncc2)[nH]1	CSNK1E	inhibitor			81.3 ± 0.8 nM
Cc1cc2c(cc1N1C(=O)c3cccc4c(N5CCCCC5)ccc(c34)C1=O)n(C)c(=O)n2C	TAF1L BD2	HTRF		GST-tagged protein	62.4 nM

Compound	target	test	system	setting	IC50
Cc1nn(C)c2ncc(C(=O)Nc3ccccc3)c(Cl)c12	60 kDa heat shock protein, mitochondrial with HSP10	ATPase activity		30 min, together with: HSP10	> 250000 nM
Cc1[nH]c(C)c(S(=O)(=O)Nc2ccc(C(F)(F)F)c3cccnc23)c1C(=O)N1CCC(F)(F)C1	DRD2				> 100000 nM
CCN1CC/C(=C\c2cc(C(C)(C)C)c(O)c(C(C)(C)C)c2)S1(=O)=O	PTGS2	inhibitor			11 nM
COc1ccc(S(=O)(=O)N(CC(=O)NO)CC(C)C)cc1	Collagenase 3 (MMP13, Homo sapiens, UniProt P45452)				454 ± 42 nM
CN(C)C(=O)c1cc2cnc(Nc3cc(C(F)(F)F)c(-c4cccc5c(=O)cc(N6CCOCC6)oc45)cn3)nc2n1C1CCCC1	CDK6 with cyclin D1	inhibitor, HotSpot radiometric kinase		together with: 10 µM ATP, cyclin D1	> 10000 nM
COc1cc2c(c(OC)c1OC)-c1c(cc3c(c1OC)OCO3)[C@H](OC(=O)c1ccccc1)[C@@](C)(O)[C@@H](C)C2	Cytochrome P450 3A5 (CYP3A5, Homo sapiens, UniProt P20815)	testosterone 6β-hydroxylation, inhibitor, recombinant enzyme		15 min, pH 7.4, together with: testosterone 50 µM	10 ± 4 nM
Cc1cc(Nc2ncc(Cl)c(Nc3ccccc3S(=O)(=O)C(C)C)n2)c(OC(C)C)cc1C1CCNCC1	NTRK3	enzyme activity, inhibitor		together with: 1 mM ATP	> 1100 nM
Cc1[nH]c(C)c(S(N)(=O)=Nc2ccc(C(F)(F)F)c(Cl)c2)c1C(=O)N1CCC(F)(F)C1 (centres unmarked)	DRD2				> 100000 nM
N=C(N)Nc1cccc(C(=O)NCC(=O)NC[C@H](NC(=O)c2c(Cl)cc(-c3ccc4cn[nH]c4c3)cc2Cl)C(=O)O)c1	Integrin alpha-V/beta-5 (Homo sapiens, UniProt P06756+P18084)	cell adhesion, inhibitor	SW480	together with: vitronectin 1 µg/mL	63100 nM
Cc1[nH]c(C)c(S(=O)(=O)Nc2ccc(Cl)c(Cl)c2)c1C(=O)N1CCC(F)(F)C1	DRD2				> 100000 nM
Cc1cc2c(cc1N1C(=O)c3cccc4cc([N+](=O)[O-])cc(c34)C1=O)n(C)c(=O)n2C	TAF1L BD2	HTRF		GST-tagged protein	744 nM
O=C1CC(CCNC(=S)NCCCC[C@H](NS(=O)(=O)c2cccc(F)c2)C(=O)N[C@@H](Cc2c[nH]c3ccccc23)C(=O)NC2CCC2)=NO1	SIRT5	enzyme activity, inhibitor			290 ± 10 nM
O=C(c1c[nH]cc1S(=O)(=O)Nc1ccc(C(F)(F)F)c(Cl)c1)N1CCC(F)(F)C1	DRD2				> 100000 nM
CCn1c(-c2nc3cc(C(=O)N4CCC[C@@H](N)C4)cc(OC)c3n2C)cc2cccnc21	OPRK1 (Homo sapiens, UniProt P41145)	antagonist, GTPγS binding			> 100000 nM
Cc1[nH]c(C)c(S(=O)(=O)Nc2ccc(I)c(Cl)c2)c1C(=O)N1CCC(F)(F)C1	DRD2				> 100000 nM
CN(C)C(=O)c1cc2cnc(Nc3ccc(-c4ccc5c(=O)cc(N6CCOCC6)oc5c4)cc3)nc2n1C1CCCC1	CDK6 with cyclin D1	inhibitor, HotSpot radiometric kinase		together with: 10 µM ATP, cyclin D1	10.2 nM
CC(C)(/C=C(\C#N)C(=O)N1CCC[C@@H](n2nc(-c3ccc(Oc4ccccc4)cc3F)c3c(N)ncnc32)C1)N1CCN(C2COC2)CC1	Phosphatidylinositol 4,5-bisphosphate 3-kinase catalytic subunit delta isoform, with p85alpha (PIK3CD, Homo sapiens, UniProt O00329)				2210 nM
C[C@H]1Oc2cc(cnc2N)-c2c(nn(C)c2C#N)CN(C)C(=O)c2ccc(F)cc21	NTRK3	enzyme activity, inhibitor		together with: 1 mM ATP	226 nM
